Measurements of several laboratories.
Every numbered part comes from another study and shows a few of its results, in no order.

Series 1
Target: RING finger protein unkempt homolog, zinc fingers 1-6, GST-SBP tag (UNK, Homo sapiens, UniProt Q9C0B0, residues 30-357)
Technique: RNA Bind-n-Seq
Molecule type: RNA
Sample: in vitro
Concentration: not given
Setting: RNA with constant flanks, ends assumed
Reference: input RNA pool
Direction: higher = stronger binding
Residues (chain): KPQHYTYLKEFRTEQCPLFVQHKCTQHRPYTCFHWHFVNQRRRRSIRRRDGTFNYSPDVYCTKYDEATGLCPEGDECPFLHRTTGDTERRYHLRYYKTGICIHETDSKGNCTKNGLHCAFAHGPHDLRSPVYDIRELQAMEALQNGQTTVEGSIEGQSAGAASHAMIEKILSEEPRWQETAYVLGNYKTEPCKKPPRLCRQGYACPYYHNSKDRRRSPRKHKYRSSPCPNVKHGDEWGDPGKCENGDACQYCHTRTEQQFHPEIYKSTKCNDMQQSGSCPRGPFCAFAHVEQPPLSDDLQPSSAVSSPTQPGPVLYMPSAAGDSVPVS
With `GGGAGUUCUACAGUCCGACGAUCACUCGUUUGCUUUUUUUCUUUUUUUAACUAAGAGCUGUGUUCCUGGCUAGAGAAUUUCAUUACCGGGAGCUGAGCCCCGGCCCAUAUGGGUGUACUGCUCGGAGACUGGGAGCAAGGGGUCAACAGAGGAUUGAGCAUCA` the bound/input enrichment was 0.558 ratio.
For `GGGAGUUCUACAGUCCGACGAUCAGUUUAUUAUUGUUGCUUAAUAAGAAAACACGGUUCCACUUGGGCUAUUUUAAGGGCAGGCCGCUAUCACUCUGUCUUGUGUUAUGAUUAAUAUUAUCUGCAUAAGCAUAGAAUAAUACUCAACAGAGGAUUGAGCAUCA`, the bound/input enrichment was 0.373 ratio.
`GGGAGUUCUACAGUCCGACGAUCGUACGAGGCAUAUUAAUGAAUGAGGAGGUCCUAGGAAACCAGAUUCACUUGCAUGUGACAACCCGGGAAUAUGGUGCCCGGGUCUCCAACCUACACAUGUACUCAGCUGUUUGUGCUGACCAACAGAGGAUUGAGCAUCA` gave a bound/input enrichment of 0.276 ratio.
`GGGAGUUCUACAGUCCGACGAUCAAACUCAAACAGACGUUGACUUUCUUUGAUGAGCUUCAUAAUGUUGGCAGAGAUCAUGGGACCCGUGAUUUUAGGGAGAGUUUAGUAUCCCUGGUUCAGAACUCCAGAAAACUACAGAACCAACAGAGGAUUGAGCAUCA` has a bound/input enrichment of 0.247 ratio.
For `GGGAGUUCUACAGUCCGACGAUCACUGUGCUUCAAGCGGUGUCUGCUUUUGGGGCAGAGUUUUCAUCGGAGGCAUGCAGAGAGUCCGGCUUUUCUAGCAACUUGCUUUGCAGCUCUUGUGAUCUUCUCGGACAGUUCAACCUGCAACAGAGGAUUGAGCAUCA`, the bound/input enrichment was 0.0715 ratio.
With `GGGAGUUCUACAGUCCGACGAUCGGAGCAGAUGCUGAUCUCAUUAUGCUUGGCCUUGCCACACAUGAACCGAACUUUACCAUUAUCCGAGAAGAAUUCAAACCAAACAAGCCCAAACCAUGUGGUCUUUGUAAUCAGUUUGGACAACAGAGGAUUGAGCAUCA` the bound/input enrichment was 0.0862 ratio.
The bound/input enrichment of `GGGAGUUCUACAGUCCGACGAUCUUGAGACCUUGUGUACUAAGAGCAAGGAAGUAUAGCUAAGAUGUCUAGAUUAUUUAUAUGCCGUAUGGUGGGGAGUGGGGCUGCAAGGAAGGGGGCUGACAUUGUAAAUGAGAAAAUCAGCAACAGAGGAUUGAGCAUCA` is reported as 11.5 ratio.
`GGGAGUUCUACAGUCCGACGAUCAUCCCCCAGGAAUUGAACAACAUUACCAAGCUCAACGAACACUUCAGCAAAUUUGGAACCACCGUUAAUAUCCAGGUUGCUUUUAAGGGUGAUCCAGAAGCAGCACUCAUCCAAUACCUUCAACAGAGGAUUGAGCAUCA` has a bound/input enrichment of 0.261 ratio.
With `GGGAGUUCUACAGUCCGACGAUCUGUGUGGCCAGAGCUUGCACAGGAGGAAAGCAGGCUGCUGAAUUUAGUCACUGAUCUCUAUCCGCGGCCGCCUAAGGCUAUGCUGAGGUUUAUAUCCCAUUUGUAUUGUUGCAGCUCAAACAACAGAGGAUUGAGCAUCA` the bound/input enrichment was 0.359 ratio.
The bound/input enrichment of `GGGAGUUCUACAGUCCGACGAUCUUUUUUAAGUUUUUUUAACGUCUGCUUUUAGAAGUGGAGCUUUGACAGGGUGUUUGCUCGACCGAAAGGCAGCCUCUGUCCUUAAGAAGAGAUUGUUACCAAGACUCCAGGCUAGGAGAGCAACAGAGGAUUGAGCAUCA` is reported as 0.83 ratio.
With `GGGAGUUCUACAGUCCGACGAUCAAAUAUGUUGUACAUUUGAUUAAAAUUAUUUAGAUAAAUAUUACUAUGUUGACUUUUAAACCGCUUUAUCCUAUUUUUCAUUCAUUUUGCAAAUAUUUGUUGUGUGUAGUUUCUUAACGUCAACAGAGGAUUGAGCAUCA` the bound/input enrichment was 13.6 ratio.

Series 2
Cell line: yeast with cyclin F-Cln2 chimera
Observed: cell growth
Action: binder
Technique: competitive growth deep sequencing
Molecule type: peptide
Concentration: concentration not given
Setting: peptide tiling library
Direction: direction not given
`KPHVSDEEEEEPPFYH`: “growth enrichment score” 0.354.
Under “growth enrichment score”, `LRRKLFLDGNGSIS` is recorded as 3.3.
`ARKRLELGNLGNPQ`: “growth enrichment score” 1.97.
For `VEEEFFALRKRTPSAG`, “growth enrichment score” read 0.444.
`DKYDEGLYRFNSLNDL` — result for “growth enrichment score”: -0.404.
Under “growth enrichment score”, `RSLKLDGLLEEN` is recorded as 3.34.
`AKRSLGFLPQPVPL`: “growth enrichment score” 2.05.
`KPKPVKPVTFSTGIKM` — result for “growth enrichment score”: 0.0889.
For `DVSERGYVILPNDYFE`, “growth enrichment score” read -0.17.
`ALLRRLQDVANDRGSH`: “growth enrichment score” 0.426.
Under “growth enrichment score”, `GLPDFVFQQQPVESEA` is recorded as 0.0472.
`RDLFDCDFGDLTPLDF`: “growth enrichment score” 0.0619.
Under “growth enrichment score”, `EAAPPTQEAQGETEPT` is recorded as 0.588.
For `QYQVVDDIVSKLVFDF`, “growth enrichment score” read 0.0305.
`ESSTVSEEDYFSSHRD` — result for “growth enrichment score”: -0.0159.
`EPKTLFLGAGDFQF`: “growth enrichment score” 0.768.
`IQKKLRFEDTLEFVGF`: “growth enrichment score” 2.73.
`CFRCLLFSFSGRSGVE` — result for “growth enrichment score”: 1.85.

Series 3
Target: RNA binding protein fox-1 homolog 2, RRM domain, GST-SBP tag (RBFOX2, Homo sapiens, UniProt O43251-10, residues 100-194)
Technique: RNA Bind-n-Seq
Molecule type: RNA
Sample: in vitro
Concentration: 365 nM
Setting: natural RNA segment, single round, ends assumed
Reference: no-protein control
Direction: higher = stronger binding
Residues (chain): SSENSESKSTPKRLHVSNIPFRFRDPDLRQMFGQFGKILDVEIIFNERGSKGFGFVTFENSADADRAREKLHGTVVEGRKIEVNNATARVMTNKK
`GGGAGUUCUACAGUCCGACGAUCUCCACUUCCUAGAAGUUUAUCCAGUGAACUAGACACUAAGCCAAGCACAUGUCCAGGAGGGUUGCUGUCGCACUAGCACCUAGGUAACACCAACUAGAUUAUUAUCAGGUUGGAAUUCUCGGGUGCCAA` — result for “RBNS enrichment (R)”: 0.497.
`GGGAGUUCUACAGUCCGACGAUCUUAUAUCUAAUUUGUACCCUUGUUGAAAUUGUCAUUUAUACAAUAAAGCGAAUUCUUUAUCUCUAAAUAUGAUGAAGUUUUCUUAACAUGAUAAUUUUUAGUUAAAAUCUUGGAAUUCUCGGGUGCCAA` — result for “RBNS enrichment (R)”: 0.695.
`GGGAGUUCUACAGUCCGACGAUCUUUCCCCUCUUCCCUGUCUUCCCCACCUUCCCCCAACUACCCGGGCCUGACCCGGCCCCUACCAGCCACGGGCACAAGACCCCUGCUCCUGACUUAGCCCGUCACCCUUAUGGAAUUCUCGGGUGCCAA` — result for “RBNS enrichment (R)”: 0.782.
Under “RBNS enrichment (R)”, `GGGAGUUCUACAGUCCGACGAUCAGGUGGCCCUGUCUCAAGCACCUCUCUGGCCCUCUGGUGGCCCUUGCUUAAUAAAGAUUCUCCGAGCCAUUCUGAGUCUCUGUGAGUGAUUCCAAUCAGCUUCAGCCUCAUGGAAUUCUCGGGUGCCAA` is recorded as 0.394.
`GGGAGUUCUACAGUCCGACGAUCUUUAAGAAAUGUAUCCUGUUUGCAAAGGCACAGUAAAGUUGCAUCUUAUAGACUAUAGGCAAUAAAGCUAACAAUAAACCUUAUUUAACACAAACCACAUCCAUAUCCUCUGGAAUUCUCGGGUGCCAA` — result for “RBNS enrichment (R)”: 0.677.
For `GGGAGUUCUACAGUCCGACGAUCAGUUUGGAGAAAUGAUGAGCUACGCCUUGAUGAAAGAACCGUGUUGGUGCUGCUAAGUUUAGCCAUUAUGGUUUUUCCUUUCUCUCUCUUAAGCCUUAUUCUUCAACUAAUGGAAUUCUCGGGUGCCAA`, “RBNS enrichment (R)” read 0.33.
Under “RBNS enrichment (R)”, `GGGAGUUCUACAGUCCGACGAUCUUCAUCUGCUUCUUGGGUUUAAGCACACACCUGAAGGGGAGAUAUUGGGGGACACGGUGGCCACUCGCGGUCUGUGUCAUGACACUUCCCAUUCACAUCAUUGGCCUGCGUGGAAUUCUCGGGUGCCAA` is recorded as 0.997.
Under “RBNS enrichment (R)”, `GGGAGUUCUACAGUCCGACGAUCAGUCAGUCAGUCAGUCAUACUGGGAGAAGCUAGCCUUGCAUCCCUAGCACUGUCUCUUCCUGGCAGUGCUUUCUGCUCGCCCGACAGACAGCCUGUCGUGUCUCUUUGGAUGGAAUUCUCGGGUGCCAA` is recorded as 3.92.
`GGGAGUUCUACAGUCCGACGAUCUAGUAUUUUUGUUUCGUUUUGUUUUUAAAUUGGAGCCCCUGGUGAGGUUACAUGUGCCAUGAGAACCCACUCUACACCAUAGUGCUGGUGCCUCAGUGUUGGCCAAACUCUGGAAUUCUCGGGUGCCAA`: “RBNS enrichment (R)” 0.632.
`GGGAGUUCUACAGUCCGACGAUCCGGUGUAUCCUGGCUUUAGGGGAACCAGGUUCAAGCAGGAAAGGGAUGGACACCAAGAGGUCUUCCCCCCACCCCCAGCUCCCCACCAAUCCCUAUGCUUUCUGAUGCACUGGAAUUCUCGGGUGCCAA` — result for “RBNS enrichment (R)”: 0.436.
`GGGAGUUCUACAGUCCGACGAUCUAUUAUUUUGAAUCCAAAUGAAAGCUAUACUGUUUGCUUUCAAUGGUGGCAAAAACUUGCAAAAAGCAGAUAUACUUUUGCUAAUUUAAGUUGAAGUACUAUGAAUACAAUGGAAUUCUCGGGUGCCAA` — result for “RBNS enrichment (R)”: 0.41.
Under “RBNS enrichment (R)”, `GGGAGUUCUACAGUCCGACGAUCUAAAAUCCUAAUAAUGUCUCAUUUCCAAUAUGUUAUUUUCAGAUAACUAAGGUUUUGCUACUAAUGUCAGCCAUUUACUCUCCCACUAAUUGGGAUUAUUUUUUAAAAGAUGGAAUUCUCGGGUGCCAA` is recorded as 0.452.

Series 4
Target: Prothrombin, mature alpha-thrombin (F2, Homo sapiens, UniProt P00734)
Technique: aptamer microarray, sandwich
Molecule type: DNA with 2'F-ANA
Sample: in vitro
Concentration: 200 nM
Setting: whole 15-mer aptamer, many near background
Added: Cy3 exosite-II aptamer, 400 nM
Direction: higher = stronger binding
Sequence: GGTTGGTGTGGTTGG
Under “mean fluorescence intensity”, `2'F-ANA at 1 2 4 6 8 14` is recorded as 52.1 a.u.
Under “mean fluorescence intensity”, `2'F-ANA at 1 4 7 9 12 15` is recorded as 253 a.u.
`2'F-ANA at 1 3 6 8 9 11 13 14` — result for “mean fluorescence intensity”: 78 a.u.
`2'F-ANA at 1 3 5 10 11 12 13`: “mean fluorescence intensity” 48.8 a.u.
For `2'F-ANA at 2 3 7 8 9 11`, “mean fluorescence intensity” read 874 a.u.
For `2'F-ANA at 1 2 3 5 6 7 9 10 12 13 15`, “mean fluorescence intensity” read 50.7 a.u.
`2'F-ANA at 1 4 11 12 14` — result for “mean fluorescence intensity”: 55.2 a.u.
For `2'F-ANA at 3 7 12 14 15`, “mean fluorescence intensity” read 731 a.u.
`2'F-ANA at 7 8 10 12 13 15`: “mean fluorescence intensity” 217 a.u.
`2'F-ANA at 4 7 11 13 14` — result for “mean fluorescence intensity”: 91.9 a.u.
`2'F-ANA at 1 3 6 8 13 14 15` — result for “mean fluorescence intensity”: 78.9 a.u.
For `2'F-ANA at 1 2 4 5 6 7 11 12 14`, “mean fluorescence intensity” read 55.9 a.u.
For `2'F-ANA at 2 5 6 7 8`, “mean fluorescence intensity” read 80.4 a.u.
`2'F-ANA at 3 7 9 10 15` — result for “mean fluorescence intensity”: 558 a.u.
Under “mean fluorescence intensity”, `2'F-ANA at 1 2 3 5 6 7 12 13 15` is recorded as 81.2 a.u.
For `2'F-ANA at 1 2 7 9 10 11 12 14`, “mean fluorescence intensity” read 64.8 a.u.
`2'F-ANA at 1 2 3 6 7 8 9 12 14 15` — result for “mean fluorescence intensity”: 90.5 a.u.

Some of these lines once more (series 2):
For `DVSERGYVILPNDYFE`, “growth enrichment score” read -0.17.
`ALLRRLQDVANDRGSH`: “growth enrichment score” 0.426.
Under “growth enrichment score”, `GLPDFVFQQQPVESEA` is recorded as 0.0472.
`RDLFDCDFGDLTPLDF`: “growth enrichment score” 0.0619.
Under “growth enrichment score”, `EAAPPTQEAQGETEPT` is recorded as 0.588.
For `QYQVVDDIVSKLVFDF`, “growth enrichment score” read 0.0305.
